Results from different studies.
Every numbered part comes from another study and shows a few of its results, in no order. Positions count from the first letter of the parent shown.

Block 1
Target: RNA binding protein fox-1 homolog 2, RRM domain, GST-SBP tag (RBFOX2, Homo sapiens, UniProt O43251-10, residues 100-194)
Technique: RNA Bind-n-Seq
Form: RNA
Sample: in vitro
Tested at: 365 nM
Setting: natural RNA segment, single round, ends assumed
Relative to: no-protein control
Direction: higher = stronger binding
Constant ends, left off below: GGGAGUUCUACAGUCCGACGAUC … UGGAAUUCUCGGGUGCCAA
Residues (chain): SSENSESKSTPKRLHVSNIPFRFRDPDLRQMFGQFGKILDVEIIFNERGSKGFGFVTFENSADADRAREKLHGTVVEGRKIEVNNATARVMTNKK
Strand | RBNS enrichment (R)
UGCCUACAUACACAUGGCCGGGAUUCUUUAUUUCCUUGUUAUCAAUUAUAGUGCUUUGUUUGUUUCAGGGUUGGAAUUCUCAACCAGAAAUAAUACUUUCUAAAAUAUUU | 0.399
CCAUCUGGCCUGGCUGGAGCCAGGAACAGGAGGGACACUUCCCCAGAAUCCGCAUGUUUCCCCAGUGAUUACACUCCACUGCCACCGUGGUGCCUGGCUUUAACUCCCAC | 4
UCUUUCUUUUGGUGACUUACACCACAUGUAAUGACGCUAUGACUAAUUCUGCUCCCAAGCCCUUGUAUCUUGGGCUUCAUUUUAGGCUCAUGUGUCAGAUCUGCAUGCAU | 4
GGCAGCGUGACUCCUGCUGUCCUCCAGCCUUUCAGAUGAGAUCCUAUUCCAGCCAAAUGCAGGGAAACACUUUAUUUUGUUUGUUUUAGGUUUUGUUUUUCCUUGAGAGC | 0.588
UGAUUCUGGAAGGAGAAGUUGGUAUGUCUAGCUUCAUUGCGGCCCCUCGGGCUACCCAGCAAGAGGAUUCUGCAUCAAGGAACUGGACGAGCCGCUACCCAAACUGCCAC | 0.25
CAAUAUGAGUAAAAUCUGUCCCUUUUUCCCCCUUUGAAUGAGGUCUUCCAUGUUUGAGGGAAAGUCUUGCACUAUUGCAUAUAUUUUGGGGACACAGAUUUUCAUAGUUU | 0.587
CCUGACCUGCCAGUGAUGCCAAGAGGGGGAUCAAGCACUGGCCUCUGCCCCUCCUCCUUCCAGCACCUGCCAGAGCUUCUCCAGGAGGCCAAGCAGAGGCUCCCCUCAUG | 0.283
AAAGUACUACUGAAAAGGAACUAGGAAGUUUGGCCAAUUAAAAAAAAAAAGUAAAAUAAGUUAUAGUGGUCAGGGAAUCUCUUGACGAAAGCUAACUCUUAUUUUUCAGG | 0.354
GAACCUGCUGCUUUGUUUUCUGAGAAGAGGUUUGAAGACAUUUUAUUAACAGCUUAAUUUUUCUCUUUUACUCCAUAGGAACUUAUUUUAAUAGUAACAUUAACAACAAG | 0.696
AAGAUUAAAAGUUGAAUAAAUAACACCAGCUUCCUGAAAAUGUCCAUAAUGCAUCAUUUGAAAAACAAAAACACCUGCCUACUUUACAUUAACAUGGUAAAGAUUGUAUG | 1.4
UAAUUUUAGUGUUUAAUGUUACAUGCUUAAAUUUUUUUCAGUUUUAACAGUGGCAUAUUUAGGCAUGGAAAUAUUAUUAUGAAAUUUAUUUUCAGGAUCUGCUAUAAGGU | 0.61
CAUUUUUGGCUUACUCAUGGACAAAGUUCUGUAUAUAGUAUAAAGUCAUUAACAAGAAACAGGAUAUGCUUUAAGACAGAAUUCACUGUCUGUUGCUUCAGUAAAAGGAC | 0.332

Block 2
Target: PABPC1L2, full length, GST fusion (mouse, UniProt A0ABA7IW68)
Technique: RNAcompete
Form: RNA
Sample: in vitro
Tested at: 20 nM
Setting: 7-mer, probes averaged, single round
Relative to: mean of 7-mers
Direction: higher = stronger binding
Target sequence (chain): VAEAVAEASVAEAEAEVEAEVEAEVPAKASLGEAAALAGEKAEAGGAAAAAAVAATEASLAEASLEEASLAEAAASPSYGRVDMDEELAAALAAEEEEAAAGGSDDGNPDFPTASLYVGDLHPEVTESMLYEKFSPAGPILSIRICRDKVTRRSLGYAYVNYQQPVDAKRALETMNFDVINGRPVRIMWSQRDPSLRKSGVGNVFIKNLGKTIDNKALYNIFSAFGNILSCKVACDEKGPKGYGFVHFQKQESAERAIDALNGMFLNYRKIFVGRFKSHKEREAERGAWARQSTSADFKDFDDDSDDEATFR
Strand | 7-mer Z-score
CACUCCC | -0.264
GUCAAGA | 0.0189
UUCAAGC | -0.135
CGAGGUA | 0.1
ACCCAGC | -0.255
GGAGUGU | -0.0573
ACCUCAC | -0.155
UUCAUCU | -0.296
UAUAACC | -0.124
UACCGUC | -0.295
UGCCCAU | -0.418
CCAAGUG | -0.0935
AACACAG | 0.408
CGAAGCG | 0.00254
AGUGGAA | 0.109
CGCCGCU | -0.153
UUCGGUC | -0.296
CGCAUUU | -0.34
AAAUUCA | 1.35
UACUGGA | 0.12
AUAGUCA | -0.182
CGGCAUA | -0.115
ACUAAGC | -0.0192
GCGGGGA | 0.412
UAGGAAG | -0.0409

Block 3
Target: ABI1, truncated, D143A, DHFR fusion (Arabidopsis thaliana)
Technique: DHFR PCA, deep sequencing
Sample: yeast
Setting: methotrexate growth selection, single substitutions
Together with: (+)-ABA 4.8 µM
Relative to: wild-type fitted maximum
Direction: higher = stronger binding
Parent: PYL1, truncated, DHFR fusion (Arabidopsis thaliana); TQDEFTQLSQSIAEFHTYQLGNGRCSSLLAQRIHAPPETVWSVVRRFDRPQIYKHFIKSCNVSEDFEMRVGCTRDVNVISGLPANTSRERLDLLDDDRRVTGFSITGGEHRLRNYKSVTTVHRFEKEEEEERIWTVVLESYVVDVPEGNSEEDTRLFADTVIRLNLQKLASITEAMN; partner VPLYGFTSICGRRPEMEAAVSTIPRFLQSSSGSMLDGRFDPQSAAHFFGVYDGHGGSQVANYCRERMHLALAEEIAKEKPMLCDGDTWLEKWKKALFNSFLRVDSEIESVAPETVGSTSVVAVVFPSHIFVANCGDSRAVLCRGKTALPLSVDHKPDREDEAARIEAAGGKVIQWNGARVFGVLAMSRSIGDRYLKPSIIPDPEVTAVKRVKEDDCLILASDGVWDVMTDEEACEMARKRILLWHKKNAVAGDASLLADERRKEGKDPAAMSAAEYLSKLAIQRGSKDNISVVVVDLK
Change | relative binding score [%]
R98N | 64.3
V145Y | -9.47
S11C | 72
F47H | -20.4
N61H | 77.2
S140H | -1.39
I162M | -7.65
T120F | -7.01
S104K | 6.57
K126L | 78.2
D92F | -4.2
Y53E | 11
E174V | 24.5
L93C | 60.9
E127P | 86
T39I | 75.9
I133G | 90.5
R113H | 76.7

Block 4
Target: Histone acetyltransferase KAT6A, winged helix 2, GST fusion (KAT6A, Homo sapiens, UniProt Q92794, residues 85-181)
Technique: protein binding microarray
Form: double-stranded DNA, one strand shown
Sample: in vitro
Tested at: not given
Setting: 8-mer, flanks averaged, mean of 2 arrays, mostly near background
Relative to: not given
Direction: higher = stronger binding
Construct (chain): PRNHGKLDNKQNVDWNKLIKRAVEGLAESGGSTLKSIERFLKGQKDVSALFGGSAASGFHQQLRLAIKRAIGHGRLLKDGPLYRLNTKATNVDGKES
Strand | E-score
ACATAGTG | -0.171
TACGGGCA | 0.05
CATAGCGC | -0.00767
CAAAGTTC | -0.0465
AGTAATCG | 0.0414
GACAGTCA | -0.104
CTCCGAGC | -0.0759
CACTGTAA | 0.028
ACCTTCAT | -0.0179
ATCAATAC | -0.108
AACATGTG | -0.234
ACGAACAA | 0.145
TCCGCCCA | 0.107
CCGGGAAG | 0.0662
GACGGTCA | -0.0119
GACTAATA | -0.0378
CCTTATTC | -0.169
GACGCTTA | -0.17
ATTCCAAG | 0.152
ATTATATG | 0.0481
CCTAACAG | 0.082
CAGAAGCG | 0.0449
AGCGCTAG | 0.0293
GGAAGAAA | 0.159

Block 5
Target: Fragile X messenger ribonucleoprotein 1, C-terminal low-complexity region (Fmr1, Mus musculus, UniProt P35922)
Technique: RNA Bind-n-Seq
Form: RNA
Sample: in vitro
Tested at: 200 nM
Setting: whole 134-nt RNA, ends assumed
Together with: 150 mM KCl
Relative to: input library
Direction: higher = stronger binding
Constant ends, left off below: GGGAGUUCUACAGUCCGACGAUC … UGGAAUUCUCGGGUGUCAAGG
Strand | log2 enrichment
CAAGUCCUGUGCUACACAUCGUAUGUACCGAAUCGGUUUGGAAAGGAAAAAAAGGAAAGUAUUAUGUUACGCCGUUCGGAUCUGCACUUC | -0.514
CUGUGCUACACAUCGUAUGUACCGAAUCGGGGUUUUUGGGGAAAAAGGGGAAAAAAAGGGGAAAGUAUUAUGUUACGCCGUUCGGAUCUG | -0.161
ACCAUGCAGGUGGGCAUCUUUGGGAAGUGGGGCAAGGGGGGGAUAGGGAGGGGGGUAACACUUUGGGAACUGGUGGUCCCAGGUCGUUUC | 0.587
UGGCCCUGGUGGCAUGCGGGGAGGAAGAGGUGGCCUCAUGGAUCGUGGUGUUCCCGGUGGAAUGUUCAGAGGUGGCCGUGGUGGAGACAG | 0.111
ACCAUGCAGGUGGGCAUCUUUGGGAAGUGGGGCAAGGGGGGGAUAGGGAGGGGGGUAACAUUUUGGGAACAGGUGGUCCCAGGUCGUUUC | 0.652
AAGUCCUGUGCUACACAUCGUAUGUACCGAAUCGGGAAAAAGGGUGGGUUUUUGGGAAAGUAUUAUGUUACGCCGUUCGGAUCUGCACUU | 0.838
UGGUGGACCCGCAGCAGCUGGGCAUGUUCACGGAGGGCGAGCUGAUGUCGGUGGGUAUGGACACGUUCAUCCACCGCAUCGACUCCACCG | -0.884
CCUGUGCUACACAUCGUAUGUACCGAAUCGGGGUUUUUGGGGAAAAAAAGGGGUUUGGGGAAAGUAUUAUGUUACGCCGUUCGGAUCUGC | 0.35
AGUCCUGUGCUACACAUCGUAUGUACCGAAUCGGCCCCCGGGCCCCCGGCCCCCGGGGAAAGUAUUAUGUUACGCCGUUCGGAUCUGCAC | -0.0468
ACCAUGCAGGUGGGCAUCUUUGGGAAGUGGGGCAAGGGGGGGAUAGGGAGAGGGGUAACACUUUGGGAACAGGUGGUCCCAGGUCGUUUC | 0.641
AAGUCCUGUGCUACACAUCGUAUGUACCGAAUCGGGAAAGGGUUUGGGAAAAAGGGAAAGUAUUAUGUUACGCCGUUCGGAUCUGCACUU | -0.0624
UAACUUUAGAGGAGGAUCUGAUGGAUAUGGCAGUGGACGUGGAUUUGGGGAUGGCUAUAAUGGGUAUGGAGGUGGACCUGGAGGUGGCAA | 0.337
UUGAUGUUAGUAAAUUUGGUGUAAUACGUGGGGCUUCCAUAUUUCAAAGUGGAAGCUUUCUUCUCUGAAGUCGAUAUAUGGUUUUGAAUU | -0.67
AGUCCUGUGCUACACAUCGUAUGUACCGAAUCGGGGUUUGGGGUUUGGGGUUUGGGGAAAGUAUUAUGUUACGCCGUUCGGAUCUGCACU | 1.56

Excerpt of the above (block 3):
Change | relative binding score [%]
Y53E | 11
R113H | 76.7
R98N | 64.3
D92F | -4.2
T120F | -7.01
V145Y | -9.47
N61H | 77.2
S11C | 72
F47H | -20.4
I162M | -7.65
